# Measured values gathered from unrelated publications.
# Protocols differ between the studies behind these lines. ± gives the spread as reported.
# CDK2 with cyclin A: Cyclin-dependent kinase 2, with cyclin A (CDK2, Homo sapiens, UniProt P24941)
# DRD3: D(3) dopamine receptor (DRD3, Homo sapiens, UniProt P35462)
# Sequence of UniProt P35462 (whole entry, looked up): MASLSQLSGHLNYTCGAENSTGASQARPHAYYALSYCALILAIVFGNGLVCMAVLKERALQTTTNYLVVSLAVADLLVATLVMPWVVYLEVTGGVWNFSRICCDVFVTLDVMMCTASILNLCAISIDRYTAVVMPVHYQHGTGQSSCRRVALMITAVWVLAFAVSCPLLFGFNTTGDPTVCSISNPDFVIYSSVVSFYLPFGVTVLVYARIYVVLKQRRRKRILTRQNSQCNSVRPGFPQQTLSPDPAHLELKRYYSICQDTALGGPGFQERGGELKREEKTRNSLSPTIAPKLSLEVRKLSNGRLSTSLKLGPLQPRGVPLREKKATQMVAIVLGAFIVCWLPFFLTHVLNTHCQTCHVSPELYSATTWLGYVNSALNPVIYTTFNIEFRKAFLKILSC
# ESR1: Estrogen receptor (ESR1, Homo sapiens, UniProt P03372)
# Sequence of UniProt P03372 (whole entry, looked up): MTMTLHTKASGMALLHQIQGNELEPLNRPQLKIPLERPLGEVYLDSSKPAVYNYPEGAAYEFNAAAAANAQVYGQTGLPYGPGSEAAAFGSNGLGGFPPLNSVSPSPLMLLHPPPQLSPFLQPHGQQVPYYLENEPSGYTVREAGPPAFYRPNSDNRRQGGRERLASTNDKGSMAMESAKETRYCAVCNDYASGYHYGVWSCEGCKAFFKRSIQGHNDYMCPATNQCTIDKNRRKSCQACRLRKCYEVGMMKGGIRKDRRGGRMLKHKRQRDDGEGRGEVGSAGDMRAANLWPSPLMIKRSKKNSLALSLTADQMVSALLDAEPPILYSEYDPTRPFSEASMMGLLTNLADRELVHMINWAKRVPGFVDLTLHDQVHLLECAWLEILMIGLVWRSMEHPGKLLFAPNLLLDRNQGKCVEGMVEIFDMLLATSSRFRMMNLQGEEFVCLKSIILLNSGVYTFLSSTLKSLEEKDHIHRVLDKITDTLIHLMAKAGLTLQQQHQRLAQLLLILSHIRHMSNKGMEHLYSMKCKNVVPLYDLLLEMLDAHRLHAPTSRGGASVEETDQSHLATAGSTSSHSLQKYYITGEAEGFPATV
# SLC10A1: Hepatic sodium/bile acid cotransporter (SLC10A1, Homo sapiens, UniProt Q14973)
# Sequence of UniProt Q14973 (whole entry, looked up): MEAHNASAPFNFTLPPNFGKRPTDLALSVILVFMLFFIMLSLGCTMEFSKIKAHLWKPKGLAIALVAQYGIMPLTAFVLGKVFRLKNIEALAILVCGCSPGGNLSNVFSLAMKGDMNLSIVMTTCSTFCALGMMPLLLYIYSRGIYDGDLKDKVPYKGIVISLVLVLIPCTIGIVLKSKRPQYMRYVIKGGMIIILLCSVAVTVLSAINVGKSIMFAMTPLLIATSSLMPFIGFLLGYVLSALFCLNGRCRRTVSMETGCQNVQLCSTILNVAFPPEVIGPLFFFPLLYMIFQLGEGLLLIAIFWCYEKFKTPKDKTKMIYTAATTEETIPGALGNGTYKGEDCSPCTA
# CDK2: Cyclin-dependent kinase 2 (CDK2, Homo sapiens, UniProt P24941)
SMILES,target,assay,test system,conditions,endpoint,result
COc1ccc(NC(=O)CSc2nnnn2C)cc1,CDK2 with cyclin A,,,,Kd,> 100 µM
O=C(c1c[nH]cc1S(=O)(=O)Nc1ccc(C(F)(F)F)c(Cl)c1)N1CCC(F)(F)C1,DRD3,"β-arrestin recruitment, antagonist, PathHunter",,added: dopamine EC80,IC50,> 100 µM
O=c1cc(-c2ccc(O)cc2)oc2cc(O)c([C@@H]3O[C@H](CO)[C@@H](O)[C@H](O)[C@H]3O)c(O)c12,ESR1,"array formation, agonist",ERα-GFP PRL-HeLa,1 h,EC50,1.59 µM
Cc1[nH]c2cccc(C(=O)N3CCC(F)(F)C3)c2c1S(=O)(=O)Nc1ccc(C(F)(F)F)c(Cl)c1,DRD3,"Go activation, antagonist, BRET",,added: dopamine,IC50,> 100 µM
Cc1ccc(C)c(OCCCC(C)(C)C(=O)O)c1,SLC10A1,"taurocholate uptake, inhibitor",NTCP-expressing HEK293,added: 10 µM taurocholate,Ki,30.4 ± 2.9 µM
O=C(/C=C/c1ccc(O)cc1)c1c(O)cc(O)cc1O,ESR1,"array formation, agonist",ERα-GFP PRL-HeLa,1 h,EC50,2.05 µM
Cc1[nH]c(C)c(S(=O)(=O)Nc2c(Cl)cc(C(F)(F)F)cc2Cl)c1C(=O)N1CCC(F)(F)C1,DRD3,"β-arrestin recruitment, antagonist, PathHunter",,added: dopamine EC80,IC50,> 100 µM
COc1cc(OC)c(NC(=O)CSc2nnc(-c3ccncc3)n2C)cc1Cl,CDK2,binding,,,Kd,> 100 µM
Cc1[nH]c(C)c(S(=O)(=O)Nc2ccc(C3(C)CCO3)c(Cl)c2)c1C(=O)N1CCC(F)(F)C1 (centres unmarked),DRD3,"β-arrestin recruitment, antagonist, PathHunter",,added: dopamine EC80,IC50,> 100 µM
OC[C@H]1O[C@@H](Oc2cc3c(O)cc(O)cc3[o+]c2-c2ccc(O)c(O)c2)[C@H](O)[C@@H](O)[C@@H]1O,ESR1,"array formation, agonist",ERα-GFP PRL-HeLa,1 h,EC50,0.893 µM
CC(C(=O)O)c1cccc(C(=O)c2ccccc2)c1 (centres unmarked),SLC10A1,"taurocholate uptake, inhibitor",NTCP-expressing HEK293,added: 10 µM taurocholate,Ki,361 ± 178 µM
CCc1ccccc1NC(=O)CSc1nnc(-c2cccc(OC)c2)n1C,CDK2,binding,,,Kd,> 100 µM
Cc1ccc(NS(=O)(=O)c2c(C(=O)N3CCC(F)(F)C3)c(=O)[nH]n2C)cc1Cl,DRD3,"Go activation, antagonist, BRET",,added: dopamine,IC50,> 100 µM
COc1ccc2c(C)nc(Nc3nc(C)cc(O)n3)nc2c1,CDK2 with cyclin A,,,,Kd,> 100 µM
Cc1[nH]c(C)c(S(=O)(=O)Nc2ccc(C(F)(F)F)c(Cl)c2)c1C(=O)N1C2CCC1CC2,DRD3,"β-arrestin recruitment, antagonist, PathHunter",,added: dopamine EC80,IC50,> 100 µM
CCC(C)n1ncn(-c2ccc(N3CCN(c4ccc(OCC5COC(Cn6cncn6)(c6ccc(Cl)cc6Cl)O5)cc4)CC3)cc2)c1=O (centres unmarked),SLC10A1,"taurocholate uptake, inhibitor",NTCP-expressing HEK293,added: 10 µM taurocholate,Ki,77.1 ± 38 µM
COC(=O)[C@@H]1CCCN1C(=O)c1c(C)[nH]c(C)c1S(=O)(=O)Nc1ccc(C(F)(F)F)c(Cl)c1,DRD3,"β-arrestin recruitment, antagonist, PathHunter",,added: dopamine EC80,IC50,> 100 µM
CC1(C)S[C@@H]2[C@H](NC(=O)[C@H](N)c3ccccc3)C(=O)N2[C@H]1C(=O)O,SLC10A1,"taurocholate uptake, inhibitor",NTCP-expressing HEK293,added: 10 µM taurocholate,Ki,182 ± 138 µM
O=C(Cc1ccc(OCCN2CCCC2)cc1)Nc1cc(C2CC2)[nH]n1,CDK2,"average of ITC, Octet and Thermofluor",,untagged protein,Kd,1.04 µM
CCN(CC)CCNC(=O)c1ccc(N)cc1,SLC10A1,"taurocholate uptake, inhibitor",NTCP-expressing HEK293,added: 10 µM taurocholate,Ki,384 ± 185 µM
O=C(Cn1nc(-c2cccc([N+](=O)[O-])c2)c2ccccc2c1=O)NCC1CCCO1 (centres unmarked),CDK2 with cyclin A,,,,Kd,> 100 µM
CCCN(CCC)S(=O)(=O)c1ccc(C(=O)O)cc1,SLC10A1,"taurocholate uptake, inhibitor",NTCP-expressing HEK293,added: 10 µM taurocholate,Ki,435 ± 114 µM
CCCC(=O)Nc1cc(C2CC2)[nH]n1,CDK2,"average of ITC, Octet and Thermofluor",,untagged protein,Kd,3.35 µM

# Excerpt of the above:
SMILES,target,assay,test system,conditions,endpoint,result
O=C(Cc1ccc(OCCN2CCCC2)cc1)Nc1cc(C2CC2)[nH]n1,CDK2,"average of ITC, Octet and Thermofluor",,untagged protein,Kd,1.04 µM
